Measured values of several laboratories.
Parts stem from different laboratories: compare values within a part only.

Sample 1
Target: RING finger protein unkempt homolog, zinc fingers 1-6, GST-SBP tag (UNK, Homo sapiens, UniProt Q9C0B0, residues 30-357)
Method: RNA Bind-n-Seq
Form: RNA
Sample: in vitro
Tested at: not given
Setting: RNA with constant flanks, human and mouse sites, ends assumed
Reference: input RNA pool
Direction: higher = stronger binding
Measurement: bound/input enrichment
All sequences stand within: GGGAGUUCUACAGUCCGACGAUC … CAACAGAGGAUUGAGCAUCA
Construct (chain): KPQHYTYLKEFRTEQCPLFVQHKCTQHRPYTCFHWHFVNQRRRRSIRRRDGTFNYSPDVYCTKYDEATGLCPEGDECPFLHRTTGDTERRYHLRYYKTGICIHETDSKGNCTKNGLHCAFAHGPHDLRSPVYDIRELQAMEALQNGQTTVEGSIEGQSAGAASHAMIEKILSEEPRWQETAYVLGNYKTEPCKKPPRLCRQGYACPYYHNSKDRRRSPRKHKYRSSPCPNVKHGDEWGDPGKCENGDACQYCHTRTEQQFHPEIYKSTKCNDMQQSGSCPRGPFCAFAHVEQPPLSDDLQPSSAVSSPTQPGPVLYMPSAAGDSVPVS
Oligonucleotide = GAGAGACAUUUCUCCAUCUCAGGAUGCCCGCUGUAUCAUAACCUCUCAGCUGACGAAUGCAAGGCACCAACAGAGAGACAGCUGCGGUAUAAGGAAAAGGUGGCUGAACUCAGGAAGAAA; value = 0.223 ratio
Oligonucleotide = CACGUCAUGCAUUUUUCUAAAUGGGCUGUUUCCAGUGGCAGCAGCACAGCCUUGCUGUACAGCAAGCGGCUGAUUACAUACAGGUUACGGCACCUUCUUCGUGCAAGGUGUGAUGCUUCU; value = 0.138 ratio
Oligonucleotide = UUGAGACCUCUGACACCAUAGAAAAUUUUAAUUGGGCUGCUACACUAAGAUAAUGUGCAAUUAUGAAGGCUCUUCCUUGGCUAGGUGUAGCUGCUUGCAUUUCCCAUCUGUUCUUGGCUU; value = 4.98 ratio
Oligonucleotide = AAGUAUUUCUCUCUCAUUCCCACAGGAUUUGCAGAUGAAGACAUUAAUAAAAGGUUCCUAAGUGAUAUCCCAAGCUCUCAGAUUCUCCAGGAAGAGAUGACUUGGAUGAAGGAGAUUCUU; value = 0.0757 ratio
Oligonucleotide = AGGCCUUGGUUUACACCCAGAUCCAUUUAUAUGGAAGCAUCUACAGUGGAUUGUAAUGAUUUAGGUCUUUUAACUUUCCCAGCCAGAUUGCCAGCUAACACACAGAUUCUUCUCCUACAG; value = 0.172 ratio
Oligonucleotide = AGCCUGCACAGCCGCGGCGGCAGCAGCAGUGAGAGUUCCAGGGUCUCCCUCCACUGCUGUAGUAACCCGGGUCCGGGGCCUCGGUGGUGCUCCGAUGCCCCUCACCCACCCCUGAAGAUC; value = 0.147 ratio
Oligonucleotide = UUAAUUUUUUUAAUUUUUUUAUUUUUUAUUUUCUUUUUGGUUUGGGGAGGGAGAAAAGUUCUUAGCACAAAUGUUUUACAUAAUUUGUACCAAAAAAAAAAAAAAAGGAAAGGAAAGAAA; value = 3.42 ratio
Oligonucleotide = AUAUAUAUUCAUUUGCACUUACGUGAAACACAAACUUUGCUCUACAAAAUUUCGUGUUUCUUAGUGAUUUUAAAAUGCAUGUAUUGCAUGUAAAGGAAAACCAUUACAAUUAAUGUUUAU; value = 0.338 ratio

Sample 2
Target: Histone acetyltransferase KAT6A, winged helix 2, GST fusion (KAT6A, Homo sapiens, UniProt Q92794, residues 85-181)
Method: protein binding microarray
Form: double-stranded DNA, one strand shown
Sample: in vitro
Tested at: not given
Setting: 8-mer, flanks averaged, mean of 2 arrays, mostly near background
Reference: not given
Direction: higher = stronger binding
Measurement: E-score
Residues (chain): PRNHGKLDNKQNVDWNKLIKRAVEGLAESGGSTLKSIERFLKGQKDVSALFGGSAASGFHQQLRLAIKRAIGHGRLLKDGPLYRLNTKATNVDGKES
Oligonucleotide = CCAAAAGC; value = 0.14
Oligonucleotide = AAATCGGC; value = 0.147
Oligonucleotide = CATTTGAG; value = 0.0598
Oligonucleotide = ACAAGTGA; value = -0.139
Oligonucleotide = AACTCGCT; value = 0.221
Oligonucleotide = AGTCACTG; value = -0.0336
Oligonucleotide = AGTGACGG; value = 0.0795
Oligonucleotide = CAAACTGA; value = -0.00615
Oligonucleotide = ACTTACCT; value = -0.236
Oligonucleotide = CGCACGAC; value = 0.0352
Oligonucleotide = CTTGCGTC; value = 0.104
Oligonucleotide = AGTGGATG; value = -0.0411
Oligonucleotide = CGTTACAC; value = -0.000875
Oligonucleotide = GGTAAATA; value = -0.00483
Oligonucleotide = ATCCGGTG; value = 0.199
Oligonucleotide = AGACAAGA; value = -0.0608
Oligonucleotide = GTCCATCA; value = -0.0191
Oligonucleotide = AGAGGAGG; value = -0.0274
Oligonucleotide = GCCGCCGA; value = 0.145
Oligonucleotide = GATCGATC; value = -0.148
Oligonucleotide = CGGACCCA; value = 0.161
Oligonucleotide = AACTGATG; value = -0.179
Oligonucleotide = CGTGAGTC; value = -0.181
Oligonucleotide = ACCACCTC; value = -0.0862
Oligonucleotide = GTTTGGAA; value = 0.0122

Sample 3
Target: Sal-like protein 4, full length isoform B (SALL4, Homo sapiens, UniProt Q9UJQ4-2, residues 1-616)
Method: universal PBM
Form: double-stranded DNA, one strand shown
Sample: in vitro
Tested at: not given
Setting: 8-mer, flanks averaged, mean of replicates
Direction: higher = stronger binding
Measurement: E-score
Residues (chain): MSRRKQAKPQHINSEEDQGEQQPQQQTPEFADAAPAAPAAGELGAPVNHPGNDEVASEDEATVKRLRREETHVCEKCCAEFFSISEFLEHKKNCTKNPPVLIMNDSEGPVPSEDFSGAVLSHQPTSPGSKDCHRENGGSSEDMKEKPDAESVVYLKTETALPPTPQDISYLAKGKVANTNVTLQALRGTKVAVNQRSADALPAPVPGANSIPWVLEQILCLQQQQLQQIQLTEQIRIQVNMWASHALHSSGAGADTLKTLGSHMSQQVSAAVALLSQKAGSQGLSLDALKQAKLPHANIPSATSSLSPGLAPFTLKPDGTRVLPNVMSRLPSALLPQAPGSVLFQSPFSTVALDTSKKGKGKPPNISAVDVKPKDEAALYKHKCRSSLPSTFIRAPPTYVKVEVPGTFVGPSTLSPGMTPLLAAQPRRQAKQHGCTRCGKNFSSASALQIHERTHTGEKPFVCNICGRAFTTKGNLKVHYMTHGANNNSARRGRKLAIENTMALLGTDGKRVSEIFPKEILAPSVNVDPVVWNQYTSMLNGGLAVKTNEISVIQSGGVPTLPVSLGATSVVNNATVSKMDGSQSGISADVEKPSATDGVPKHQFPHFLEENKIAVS
Oligonucleotide = GAAGTTGA; value = -0.126
Oligonucleotide = CTTCAATA; value = 0.337
Oligonucleotide = AATGTTGC; value = 0.177
Oligonucleotide = AGAGTATC; value = 0.124
Oligonucleotide = CATCTGCC; value = -0.155
Oligonucleotide = CAGTTATA; value = 0.263
Oligonucleotide = ATTAGCGG; value = -0.112
Oligonucleotide = AGGCTTGG; value = -0.157
Oligonucleotide = ACAGTTAC; value = 0.134
Oligonucleotide = CTCATGAC; value = -0.13
Oligonucleotide = CTAATCCA; value = -0.021
Oligonucleotide = TAAGGGGA; value = -0.0366
Oligonucleotide = GATATGCA; value = 0.21
Oligonucleotide = GAGCTAAC; value = -0.0344
Oligonucleotide = CTCCAGGC; value = -0.25
Oligonucleotide = ACTGAGAA; value = -0.178
Oligonucleotide = AGAGCTCT; value = -0.333
Oligonucleotide = ACGGTCGG; value = -0.228

Sample 4
Target: Fragile X messenger ribonucleoprotein 1, C-terminal low-complexity region (Fmr1, Mus musculus, UniProt P35922)
Method: RNA Bind-n-Seq
Form: RNA
Sample: in vitro
Tested at: 200 nM
Setting: whole 134-nt RNA, ends assumed
Together with: 150 mM KCl
Reference: input library
Direction: higher = stronger binding
Measurement: log2 enrichment
All sequences stand within: GGGAGUUCUACAGUCCGACGAUC … UGGAAUUCUCGGGUGUCAAGG
Oligonucleotide = GCAGGAAGUAAAAACAAAUGGCAAUGCUUCGGAUAGUGGCAGGGGUGGGGGUUGCUAAGGAAAGGGUGGGAUGGGAGUGGGUAAAGAGUU; value = 0.398
Oligonucleotide = CACAGACAACACGCACCCACACAGACACAGAGGGAAGGGGUUGGGAUGGGGACAAAAUGCACAGCAGGGCGGGGUAGGACCCCAGCCCCU; value = 1.33
Oligonucleotide = CACAGACAACACGCACCCACACAGACACAGAGGGAAGGGGUUGGGAUGAAAACAGGGUGCACAGCAGGGCGGGGUAGGACCCCAGCCCCU; value = 0.535
Oligonucleotide = GCAGGAAGUUAAAACAAAUGGAAAUGCUUCGGAUAGUGGCAGGGGUGGGGGUUGCUAAGGAAAGGGUGGGAUGGGAGUGGGUAAAGAGUU; value = 0.429
Oligonucleotide = GCAGGAAGUAAAAACAAAUGGAAAUGCUUCGGAUAGUGGUAGGGGUGGGGGUUGCUAAGGAAAGGGUGGGAUGGGAGUGGGUAAAGAGUU; value = 0.207
Oligonucleotide = GCAGUAAGUAAAAACAAAUGGAAAUGCUUCGGAUAGUGGCAGGGGUGGGGGUUGCUAAGGAAAGGGUGGGAUGGGAGUGGGUAAAGAGUU; value = 0.419
Oligonucleotide = UCCUGUGCUACACAUCGUAUGUACCGAAUCAAAUUUUUAAACCCCCCCAAACCCCCAAAAAAGUAUUAUGUUACGCCGUUCGGAUCUGCA; value = -0.0432
Oligonucleotide = CACAGACAACACGCACCCACACAGACACAGAGGGAAGGGGUUGGGAUGGGGACAGGGUGCACAGCAGGGCGGGGUAGGGCCCCAGCCCCU; value = 1.19
Oligonucleotide = CACAGACAACACGCACCCACACAGACACAGAGGGAAGGGGUUGGGAUGGGGACAGGGUGCAAAGCAGGGCGGGGUAGGACCCCAGCCCCU; value = 1.14

For quick reference, copied from above (sample 2):
Oligonucleotide = CATTTGAG; value = 0.0598
Oligonucleotide = ACAAGTGA; value = -0.139
Oligonucleotide = AACTCGCT; value = 0.221
Oligonucleotide = AGTCACTG; value = -0.0336
Oligonucleotide = AGTGACGG; value = 0.0795
Oligonucleotide = CAAACTGA; value = -0.00615
Oligonucleotide = ACTTACCT; value = -0.236
